# Measured values of several laboratories.
# Each numbered part is a random draw from the data of one study; scales do not carry over between parts. Positions count from the first letter of the parent shown.

# Sample 1 — target: CCNA1, cyclin fold, Cln2 fusion (human); method: yeast growth competition, sequencing; medium: yeast; setting: strong parent motif; baseline: not given; reading: higher = stronger binding
# Parent: RBL2 docking peptide (human); STTRRRLFVENDS
Variant,normalised enrichment score
STTRRRLFVGNDS [E10G],0.301
STCRRRLFVENDS [T3C],0.955
STTPRRLFVENDS [R4P],0.0841
STTRRRLFVENIS [D12I],0.428
STTRRRLFVENDL [S13L],0.683
STTRRRQFVENDS [L7Q],0.114
STTRRRLFVRNDS [E10R],0.334
STTRRPLFVENDS [R6P],0.251
STTRRRLFVENDV [S13V],0.651
STTDRRLFVENDS [R4D],0.137
STTRRRLFTENDS [V9T],0.684
STTRRRLFVENHS [D12H],0.432
STTRRRLLVENDS [F8L],0.409
STTRRRLFVDNDS [E10D],0.984
STTRRRLFGENDS [V9G],0.493
STTQRRLFVENDS [R4Q],0.11
STTRRRLFVSNDS [E10S],0.464

# Sample 2 — target: UBE2H UBC core domain (UniProt P62256); method: yeast two-hybrid; medium: yeast; setting: mostly zero background; baseline: not given; reading: higher = stronger interaction
# UniProt P62256, sequence (whole entry, looked up): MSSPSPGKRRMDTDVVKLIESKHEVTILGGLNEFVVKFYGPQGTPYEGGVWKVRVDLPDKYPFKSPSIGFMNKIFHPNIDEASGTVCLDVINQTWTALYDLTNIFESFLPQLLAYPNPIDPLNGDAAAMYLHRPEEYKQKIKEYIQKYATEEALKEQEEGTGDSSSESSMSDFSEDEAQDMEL
# B1: DZIP3 RING domain (UniProt Q86Y13); chain PDEEEEEEEPCVICHENLSPENLSVLPCAHKFHAQCIRPWLMQQGTCPTCRLHVLLPEEFP
# B2: RNF133 RING domain (UniProt Q8WVZ7); chain DEEINPNGDSCVICFERYKPNDIVRILTCKHFFHKNCIDPWILPHGTCPICKCDILKVLGIQ
# B3: MAP3K1 RING domain (UniProt Q13233); chain NSIKDEEEQMCPICLLGMLDEESLTVCEDGCRNKLHHHCMSIWAEECRRNREPLICPLCRSKWRSHDFYS
# B4: SH3RF1 RING domain (UniProt Q7Z6J0); chain DESALLDLLECPVCLERLDASAKVLPCQHTFCKRCLLGIVGSRNELRCPECRTLVGSGVEEL
# B5: ZMIZ2 RING domain (UniProt Q8NF64); chain GTIPGTPGPNGEDGVEQTAIKVSLKCPITFRRIQLPARGHDCRHIQCFDLESYLQLNCERGTWRCPVCNKTALLEGLEVDQYMLGILIYIQNSDYEEITIDPTCSWK
# B6: RBCK1 RING domain (UniProt Q9BYM8); chain SLVLNTEPAECPVCYSVLAPGEAVVLRECLHTFCRECLQGTIRNSQEAEVSCPFIDNTYSCSGKLLEREIK
# B7: MDM4 RING domain (UniProt O15151); chain MEDCQNLLKPCSLCEKRPRDGNIIHGRTGHLVTCFHCARRLKKAGASCPICKKEIQLVIKVF
# B8: RNF121 RING domain (UniProt Q9H920); chain MPTKHLSDSVCAVCGQQIFVDVSEEGIIENTYRLSCNHVFHEFCIRGWCIVGKKQTCPYCKEKVDLKRMFS
# B9: UBOX5 RING domain (UniProt O94941); chain EQPGSILGPECASCKRVFSPYFKKEPVYQLPCGHLLCRPCLGEKQRSLPMTCTACQRPVASQDVLR
Molecule,lacZ reporter activity
GSRLQEINDVCAICYHEFTTSARITPCNHYFHALCLRKWLYIQDTCPMCHQKVYIEDDIK (RNF139 RING domain (UniProt Q8WU17)),0
B1 (DZIP3 RING domain),0
B2 (RNF133 RING domain),0
B3 (MAP3K1 RING domain),0
B4 (SH3RF1 RING domain),0
B5 (ZMIZ2 RING domain),0
B6 (RBCK1 RING domain),0
KETIKKTTKPCPRCHVPVEKNGGCMHMKCPQPQCRLEWCWNCGCEWNRVCMG (PRKN RING domain (UniProt O60260)),0
B7 (MDM4 RING domain),0
B8 (RNF121 RING domain),0
B9 (UBOX5 RING domain),0

# Sample 3 — method: RNA Bind-n-Seq; molecule type: RNA; medium: in vitro; concentration: 365 nM; baseline: no-protein control; reading: higher = stronger binding
# Target: RNA binding protein fox-1 homolog 2, RRM domain, GST-SBP tag (RBFOX2, Homo sapiens, UniProt O43251-10, residues 100-194)
# Setting: natural RNA segment, single round, ends assumed
# All sequences stand within: GGGAGUUCUACAGUCCGACGAUC … UGGAAUUCUCGGGUGCCAA
# Residues (chain): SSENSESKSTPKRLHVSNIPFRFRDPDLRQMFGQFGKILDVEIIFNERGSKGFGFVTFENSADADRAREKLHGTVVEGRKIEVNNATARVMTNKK
Strand,RBNS enrichment (R)
GGCGAGCGGGUAGGCCCAAGGCUAUUGUCGUCGCUGCUGCCAUGGCUUUUUCAUUGAGGGCCUAAAGUAAUCGCGCUAAGAAUAAAGGGAAAACGGCGUCGCCCUCAUUU,0.465
UAUAUAGCUCUUUGGCUCGUGAACCUAAUUGUAAACUUUCAGGUAUUUUUGUACAAAUAAGGGACUGAUGUUCUGUUUCUUGUUAUUAGAAAUAAACAUUAAUAAAGCGU,0.414
GAGCUGAUGCUUCAGAAGUGCAUCGCGAUUCAGAGUGACCAGCCUAAGAGCACAAAUUUAGUUUGGGUGUUCCUCAUCACAUGUAUAUAUGGACUAUCCAUCGAACUUAA,0.422
AUUUCCUUAUCUCUCUGAUUAUCUUCUGGGACCCACGUCCUUUCCUCCACAUACCUACACCUUGGGUGCAUCACUCCAUUCAUGGCCUCCUGUUACCAACUGCGCAGACA,0.501
CUUGAACCAGGGAGUCAGAGGUUGCGGUGAGCCGACAUCACGCCACUGCACUCCAGCCUGGCAACAGAGCAAGACUCCGUCUCAAAAAAGUGAAAAGAGAUUCAACCAAG,0.347
UUCAGUAUCUGAGUACUGGAAGUGAAACAUGAGGAAUGCUUUAGUGUAAUGUGGGAGAACUUUUUUGUAAAUUUAAUGCAAUUGAAAAAGUUUUCAAAUUCAAUUAAGAU,1.81
UGAGUCCUGUUCUUCCUAUUUCUUUCAGCAGAAAUGAAAUCCCAGGUAAGUAUAAGUAUUCAAGUAUUUGAUCAGUAAGUCACAGUUAUCUCCAGUGCAUUAAAUAACCU,1.62
ACAUUAUUAUAAGGGAUUUGUUAUGUCUGUAAAGUGUAACCUAGGAAGGAUCAUCAACCAUCUAAUCAAAAUGGAUCUGGAUUAUUACUCUGUAAAAUUCACAGCAGUAA,0.346
UGCUGGUGGCUGCUCUCACAGUGGCUUGUAACAACUUCUUCUGGGAGACCAGUUGAGCACAGUCUGUGAGCAGUGCCCUUCCUCUCCCACUUGUCAAGAUUUCCCCUUUA,0.382
CCUCUACUUUUGCCCCUCUACUGUAUAUUAAGCCCAUAGGCUUGUGGGAGGAAGGAGAAUUUCCAUUAGGCAAGCUGUAUGCAGUGGAAUUUUCCUUUUAGGAGACACAC,1.95
UCUUAACCACUUUUGUCAUUUGUUUUUUGGAGUAGUUUUGAAAAGUGUUUUAUAUUGAGUGCACUUCUGUUCAUUUCCAUUGCUGCUUAUAUGCAGUGUUAGCCGAAUUA,2.59
CAAUUCUUAUUCGCCAUUUCAAUACCUAGAGAUAGAGAGUCUUGUAUUUGAAGCCACACACACUGGUGUAAUAUGCUUAGUACUCUAGGUCAAGGAUUUGUUGGUAAAUG,0.561

# Sample 4 — method: RNA Bind-n-Seq; molecule type: RNA; medium: in vitro; concentration: 200 nM; setting: whole 134-nt RNA, ends assumed; with: 150 mM LiCl; baseline: input library; reading: higher = stronger binding; library: 7-deaza-guanosine replaces G
# Target: Fragile X messenger ribonucleoprotein 1, C-terminal low-complexity region (Fmr1, Mus musculus, UniProt P35922)
# All sequences stand within: GGGAGUUCUACAGUCCGACGAUC … UGGAAUUCUCGGGUGUCAAGG
Strand,log2 enrichment
AAGUCGCGUGUCUAGGUGAGUCGCGGUGGGUCCUCGCUUGCAGUUCAGCGACCACGGUGGGUACCGUUUUUGCGAGGAUUGUUUGUCCCC,-0.677
UCCUGUGCUACACAUCGUAUGUACCGAAUCGGGGAAAGGGGAAAAAGGGGAAAAAGGGGAAAGUAUUAUGUUACGCCGUUCGGAUCUGCA,0.133
AAGUCCUGUGCUACACAUCGUAUGUACCGAAUCGGUUUUUGGUUUUUUUGGAAAGGAAAGUAUUAUGUUACGCCGUUCGGAUCUGCACUU,-1.96
UGCCUGUAUGGAGUGGAAUGAAUGUUGCUGGUGUCUCUCUGAAGACUCUGCACCCAGAUUUAGGGACUGAUAAAGAUAAGGAACAGUGGA,0.113
AGUCCUGUGCUACACAUCGUAUGUACCGAAUCGGGGUUUUGGUUUUGGGGUUUUGGGAAAGUAUUAUGUUACGCCGUUCGGAUCUGCACU,-1.62
UCCUCAAGUCCUGUGCUACACAUCGUAUGUACCGAAUCGGCGGGCGGGCGGGAAAGUAUUAUGUUACGCCGUUCGGAUCUGCACUUCCAG,1.32
CCUGUGCUACACAUCGUAUGUACCGAAUCGGGGUUUUUUUGGGUUUUUUUGGUUUUUUUGGAAAGUAUUAUGUUACGCCGUUCGGAUCUG,0.902
AGUCCUGUGCUACACAUCGUAUGUACCGAAUCGGGUUUUUUUGGGUUUUUGGGAGGGAAAGUAUUAUGUUACGCCGUUCGGAUCUGCACU,-0.764
UGGCCCUGGUGGCAUGCGGGGAGGAAGAGGAGGCCUCAUGGAUCGUGGUGGUCCCGGUGGAAUGUUCAGAGGUGGCCGUGGUGGAGACAG,-0.252
UGUUGUCUGGGUUUGGGGGUCGAGUAGAUGCGGGGCAGCCGGAGCUGUUGACGGAAAGGAGUAGCCCCAAAGGAGGGCAUGUGAAGUCGC,0.308
UCAAGUCCUGUGCUACACAUCGUAUGUACCGAAUCGGCCCGGCCCGGCCCGGGGAAAGUAUUAUGUUACGCCGUUCGGAUCUGCACUUCC,-0.369

# Sample 5 — method: protein binding microarray; molecule type: double-stranded DNA, one strand shown; medium: in vitro; concentration: not given; baseline: not given; reading: higher = stronger binding
# Target: Histone acetyltransferase KAT6A, winged helix 2, GST fusion (KAT6A, Homo sapiens, UniProt Q92794, residues 85-181)
# Setting: 8-mer, flanks averaged, mean of 2 arrays, mostly near background
# Construct (chain): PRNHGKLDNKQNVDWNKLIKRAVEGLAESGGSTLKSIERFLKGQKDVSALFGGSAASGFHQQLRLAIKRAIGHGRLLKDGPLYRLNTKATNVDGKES
Strand,E-score
GCTTGGAA,0.0176
CTTCCAGA,-0.0436
ACAGTGAA,-0.0281
GGCACGAC,-0.1
ACACAACC,-0.0372
GGAACGCC,-0.0208
AATACTGC,-0.0101
CGATGCTC,0.123
ACCGCAAG,0.153
TCCACTAA,-0.0236
CTAAAAGC,0.0264
ACCTCTCC,-0.0111
ACGCTTCG,-0.0224
ACCTGTAC,-0.184
ATTTCTTC,0.14
GCAGACCA,0.0705
CTTTTCCA,-0.0993
AAGCATCC,-0.105
GACCCCTC,-0.0621
GCGTAAAA,-0.0438
ACTGTAGG,-0.0482
GGTTTCAA,-0.00114
CCTAAATA,-0.218
ATGAGTAC,-0.18
CCCGCCAA,0.173

# Sample 6 — method: universal PBM; molecule type: double-stranded DNA, one strand shown; medium: in vitro; concentration: not given; reading: higher = stronger binding
# Target: Sal-like protein 4, full length isoform B (SALL4, Homo sapiens, UniProt Q9UJQ4-2, residues 1-616)
# Setting: 8-mer, flanks averaged, mean of replicates
Strand,E-score
ACCTGCCA,-0.0557
AGACGTAT,0.152
CAAGAGCG,-0.174
CACTGAGG,-0.206
GGTCTTAA,-0.00709
CACACTGA,-0.109
ATTTATCG,0.241
GGGAGTAC,-0.176
CGCAGAGC,-0.228
GGTCGATA,-0.0272
TAACGTGA,0.178
CGGCCCAC,-0.309
AGTGCCCC,-0.128
ATTAGTTC,0.192
AGGGAAAC,0.00304
GGTACGTA,0.0753
GTTTTTCA,0.163
CGCGAGAC,-0.0878

# Excerpt of the above (sample 1):
Variant,normalised enrichment score
STTRRRLFVGNDS [E10G],0.301
STCRRRLFVENDS [T3C],0.955
STTPRRLFVENDS [R4P],0.0841
STTRRRLFVENIS [D12I],0.428
STTRRRLFVENDL [S13L],0.683
STTRRRQFVENDS [L7Q],0.114
STTRRRLFVRNDS [E10R],0.334
STTRRPLFVENDS [R6P],0.251
STTRRRLFVENDV [S13V],0.651
STTDRRLFVENDS [R4D],0.137
STTRRRLFTENDS [V9T],0.684
STTRRRLFVENHS [D12H],0.432
STTRRRLLVENDS [F8L],0.409
STTRRRLFVDNDS [E10D],0.984
